{"data": "Measurements gathered from unrelated publications", "note": "Each numbered part is a random draw from the data of one study; scales do not carry over between parts."}
{"data": "Set 1", "target": "PABPC1L2, full length, GST fusion (mouse, UniProt A0ABA7IW68)", "method": "RNAcompete", "form": "RNA", "medium": "in vitro", "tested at": "20 nM", "setting": "7-mer, probes averaged, single round", "relative to": "mean of 7-mers", "direction": "higher = stronger binding", "Target sequence (chain)": "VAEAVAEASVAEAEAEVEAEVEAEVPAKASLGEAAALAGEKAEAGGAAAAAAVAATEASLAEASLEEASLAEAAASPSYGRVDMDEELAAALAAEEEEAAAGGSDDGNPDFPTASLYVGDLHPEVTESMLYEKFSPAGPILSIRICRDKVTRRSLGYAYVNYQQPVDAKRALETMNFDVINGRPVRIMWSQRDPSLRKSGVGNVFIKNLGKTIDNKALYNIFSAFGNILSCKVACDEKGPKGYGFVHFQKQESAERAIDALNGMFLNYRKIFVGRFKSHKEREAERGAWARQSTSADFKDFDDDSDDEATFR"}
{"Strand": "AAUAUAA", "7-mer Z-score": 1}
{"Strand": "CUUAAAG", "7-mer Z-score": 0.242}
{"Strand": "UCCGGCA", "7-mer Z-score": -0.175}
{"Strand": "GACUCCG", "7-mer Z-score": -0.269}
{"Strand": "AACCAAG", "7-mer Z-score": 0.142}
{"Strand": "AUCGUCA", "7-mer Z-score": -0.228}
{"Strand": "CCGUGGG", "7-mer Z-score": -0.0663}
{"Strand": "CAUUUCC", "7-mer Z-score": -0.416}
{"Strand": "CUCCGGG", "7-mer Z-score": -0.113}
{"data": "Set 2", "target": "Sal-like protein 4, full length isoform A (SALL4, Homo sapiens, UniProt Q9UJQ4, residues 1-1053)", "method": "universal PBM", "form": "double-stranded DNA, one strand shown", "medium": "in vitro", "tested at": "600 nM", "setting": "8-mer, flanks averaged, mean of replicates", "direction": "higher = stronger binding", "UniProt Q9UJQ4, sequence (whole entry, looked up)": "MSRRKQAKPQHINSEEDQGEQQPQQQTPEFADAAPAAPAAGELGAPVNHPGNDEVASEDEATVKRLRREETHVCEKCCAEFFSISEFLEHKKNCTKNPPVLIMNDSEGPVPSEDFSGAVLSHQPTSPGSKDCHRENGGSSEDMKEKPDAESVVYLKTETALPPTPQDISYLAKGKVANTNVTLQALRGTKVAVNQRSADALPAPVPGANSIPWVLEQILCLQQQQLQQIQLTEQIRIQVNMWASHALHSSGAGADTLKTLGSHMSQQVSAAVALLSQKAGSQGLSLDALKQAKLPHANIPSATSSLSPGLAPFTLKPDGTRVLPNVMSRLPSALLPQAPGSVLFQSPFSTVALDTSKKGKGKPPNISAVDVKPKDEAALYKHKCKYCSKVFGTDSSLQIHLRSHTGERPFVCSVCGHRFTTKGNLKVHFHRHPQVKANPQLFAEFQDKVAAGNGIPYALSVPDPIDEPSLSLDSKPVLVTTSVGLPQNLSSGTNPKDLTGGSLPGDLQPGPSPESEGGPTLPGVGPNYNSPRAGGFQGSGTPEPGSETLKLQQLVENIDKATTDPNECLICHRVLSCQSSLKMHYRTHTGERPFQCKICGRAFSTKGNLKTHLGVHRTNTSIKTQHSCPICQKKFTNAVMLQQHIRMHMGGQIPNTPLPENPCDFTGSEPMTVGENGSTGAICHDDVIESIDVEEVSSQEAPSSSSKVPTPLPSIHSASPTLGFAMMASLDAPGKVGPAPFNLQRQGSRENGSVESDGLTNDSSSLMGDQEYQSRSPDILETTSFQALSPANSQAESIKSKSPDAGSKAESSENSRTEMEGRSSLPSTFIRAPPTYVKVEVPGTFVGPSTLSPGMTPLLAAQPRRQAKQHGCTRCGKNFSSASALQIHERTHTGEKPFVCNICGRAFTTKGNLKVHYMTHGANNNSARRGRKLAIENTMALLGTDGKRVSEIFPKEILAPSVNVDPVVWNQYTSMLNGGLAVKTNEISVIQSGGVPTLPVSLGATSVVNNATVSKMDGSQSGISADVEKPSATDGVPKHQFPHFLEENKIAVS"}
{"Strand": "AGAGACTA", "E-score": 0.0246}
{"Strand": "ATTGAGCA", "E-score": 0.0784}
{"Strand": "GCCCAACC", "E-score": -0.07}
{"Strand": "CTTTATGA", "E-score": 0.338}
{"Strand": "AGGCCCGA", "E-score": -0.373}
{"Strand": "CTGCGTCA", "E-score": -0.0438}
{"Strand": "ACGGTACC", "E-score": -0.122}
{"Strand": "AAATCTTA", "E-score": 0.277}
{"data": "Set 3", "target": "Interferon regulatory factor 5, full length, phosphomimetic (IRF5, Homo sapiens, UniProt Q13568-2, residues 1-514, S451D/S453D/S456D/S462D)", "method": "protein-binding microarray", "form": "double-stranded DNA, one strand shown", "medium": "in vitro", "tested at": "940 nM top", "setting": "60-bp whole probe", "with": "salmon DNA 0.4 mg/ml", "relative to": "random background probes", "direction": "higher = stronger binding", "constant ends, left off below": "GCCTAGCAC … GTCTTGATTCGCTTGACGCTGCTG"}
{"Strand": "TTAGATATCGGGTATCGCTTAGTGCTA", "fitted relative affinity [z-score]": 1.44}
{"Strand": "TGACAGAGTGAGGTTTGGGCGTGCTAG", "fitted relative affinity [z-score]": -0.598}
{"Strand": "GACGATCTGAGACTGGAGACGTGCTAG", "fitted relative affinity [z-score]": -0.492}
{"Strand": "TCAAAACTCACTCATGGCACTGTGCTA", "fitted relative affinity [z-score]": -0.027}
{"Strand": "TCATTTTGCACTCTCTAACTGTGCTAG", "fitted relative affinity [z-score]": 1.11}
{"Strand": "AAGCAAAAATGATTGGTTGAGTGCTAG", "fitted relative affinity [z-score]": 0.2}
{"Strand": "GACCGACTGGGTATCGGGACGTGCTAG", "fitted relative affinity [z-score]": 1.53}
{"Strand": "TTAGATCTCAGTTTTGATTAGTGCTAG", "fitted relative affinity [z-score]": 0.974}
{"data": "Further values, each from its own experiment"}
{"Molecule": "PhoQ, residues 284 288 289 292 302 303 SCKMEA", "target": "PhoP, residues 12 14 15 18 19 NYFTV (Escherichia coli, UniProt P23836)", "assay": "Sort-seq, item: YFP reporter", "system": "E. coli", "setting": "PhoQ-PhoP variant library, with: 10 µM Mg2+", "how to read": "relative to: high Mg2+ state, higher = stronger signaling", "measurement": "fold induction", "value": 8.84}
{"note": "Repeated from above (set 3):"}
{"Strand": "GACGATCTGAGACTGGAGACGTGCTAG", "fitted relative affinity [z-score]": -0.492}
{"Strand": "TCAAAACTCACTCATGGCACTGTGCTA", "fitted relative affinity [z-score]": -0.027}
{"Strand": "TCATTTTGCACTCTCTAACTGTGCTAG", "fitted relative affinity [z-score]": 1.11}
